Measured values from different studies.
Numbered parts are unrelated; each lists some results of a single study.

Block 1
Target: Replicase polyprotein 1ab, polymerase (rep, Severe acute respiratory syndrome coronavirus 2, UniProt P0DTD1)
Read-out: enzyme activity
Mode: inhibitor
Tested at: 20 µM
Structure (SMILES) | inhibition [%]
CN(C)CC[C@H](CSc1ccccc1)Nc1ccc(S(=O)(=O)NC(=O)c2ccc(N3CCN(Cc4ccccc4-c4ccc(Cl)cc4)CC3)cc2)cc1[N+](=O)[O-] | -0.4
COc1c(Nc2ccc(S(C)(=O)=O)nc2C)ncnc1OC1CCN(C(=O)OC(C)C)CC1 | -12.2
CCN(CC)CCOc1ccc2c(c1)C(=O)c1cc(OCCN(CC)CC)ccc1-2 | 21.1
CCOC(=O)C1=C(C)NC(C)=C(C(=O)OCC)C1c1ccccc1/C=C/C(=O)OC(C)(C)C | 9.11
Nc1nc2c(cnn2CCc2ccccc2)c2nc(-c3ccco3)nn12 | 2.43
CCC1(c2ccc(N)cc2)CCC(=O)NC1=O (stereo not shown) | 3.48
C[C@]12CCC(=O)C=C1C=C[C@@H]1[C@@H]2CC[C@@]2(C)[C@H]1CC[C@@]2(O)CCC(=O)O | -2.31
C[n+]1ccccc1/C=N/O | 1.51
CC(N)CCCC(C)(C)O (stereo not shown) | -1.79
CCN(CC)C(=O)c1ccc(C2=CC3(CCNCC3)Oc3cccc(O)c32)cc1 | -4.64
NC(N)=NC(N)=Nc1cccc(Cl)c1 | -3.65
[NH-]c1c[n+](N2CCOCC2)no1 | 0.09
CN1CCc2c(c3ccccc3n2Cc2ccccc2)C1 | -0.94
O=C(Nc1ccncc1)c1cc([N+](=O)[O-])ccc1Cl | 4.26
CC(C)n1cnc2c(C(=O)N[C@H]3CN4CCC3CC4)cc(Cl)cc21 | -6.41
OC[C@@H](O)[C@@H](O)[C@H](O)[C@H](O)CO | 1.07
Cc1ccc(-c2cc(C(F)(F)F)nn2-c2ccc(S(N)(=O)=O)cc2)cc1 | -3.54
CC(=O)N(CC(O)CN(C(C)=O)c1c(I)c(C(=O)NC[C@@H](O)CO)c(I)c(C(=O)NC[C@@H](O)CO)c1I)c1c(I)c(C(=O)NC[C@@H](O)CO)c(I)c(C(=O)NC[C@@H](O)CO)c1I | -2.51
c1ccc2[nH]c(-c3cscn3)nc2c1 | 21
Nc1nc2c(ccc3ccccc32)s1 | -17.6
OCc1ccc(O[C@@H]2O[C@H](CO)[C@@H](O)[C@H](O)[C@H]2O)cc1 | -2.74
Nc1ncnc2nc(-c3ccc(N4CCOCC4)nc3)cc(-c3cccc(Br)c3)c12 | 7.49
Nc1cccc2c1C(=O)N(C1CCC(=O)NC1=O)C2=O (stereo not shown) | 4.07

Block 2
Cell line: HEK-293T/ACE2
Tested at: 10 µM
Time: 16 h
Reference: vehicle
SMILES | viability
Nc1ccncc1 | 99.5%
NC(=O)N[C@@H](CCC(=O)O)C(=O)O | 98.8%
CCCc1nc(C(C)(C)O)c(C(=O)OCc2oc(=O)oc2C)n1Cc1ccc(-c2ccccc2-c2nnn[nH]2)cc1 | 103%

Block 3
Target: Replicase polyprotein 1ab, main protease (rep, Severe acute respiratory syndrome coronavirus 2, UniProt P0DTD1)
Read-out: enzyme activity
Mode: inhibitor
Tested at: 20 µM
Setting: primary screen
Compound | inhibition [%]
CC(=O)N[C@H](Cc1ccc2ccccc2c1)C(=O)N[C@H](Cc1ccc(Cl)cc1)C(=O)N[C@H](Cc1cccnc1)C(=O)N[C@@H](CO)C(=O)N[C@@H](Cc1ccc(NC(=O)[C@@H]2CC(=O)NC(=O)N2)cc1)C(=O)N[C@H](Cc1ccc(NC(N)=O)cc1)C(=O)N[C@@H](CC(C)C)C(=O)N[C@@H](CCCCNC(C)C)C(=O)N1CCC[C@H]1C(=O)N[C@H](C)C(N)=O | 34.6
Oc1c(I)cc(I)c2cccnc12 | 25.9
COc1ccc2c(c1)nc([S+]([O-])Cc1ncc(C)c(OC)c1C)[n]2[Mg][n]1c([S+]([O-])Cc2ncc(C)c(OC)c2C)nc2cc(OC)ccc21 (stereo not shown) | 94.7
Nc1c[n+](N2CCOCC2)no1 | 73.9

Block 4
Target: Histone acetyltransferase KAT6A, winged helix 2, GST fusion (KAT6A, Homo sapiens, UniProt Q92794, residues 85-181)
Technique: protein binding microarray
Molecule type: double-stranded DNA, one strand shown
Matrix: in vitro
Tested at: not given
Setting: 8-mer, flanks averaged, mean of 2 arrays, mostly near background
Reference: not given
Direction: higher = stronger binding
Target sequence (chain): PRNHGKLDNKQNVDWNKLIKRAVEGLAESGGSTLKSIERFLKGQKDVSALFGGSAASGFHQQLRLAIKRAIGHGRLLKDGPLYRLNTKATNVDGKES
Oligonucleotide | E-score
CCATCCAG | 0.072
AGCTACAG | -0.173
ACCGCGAG | 0.2
GAGCGTTA | -0.078
GGCACAAC | 0.114
CGACGAAA | 0.0581
AATGTGGG | -0.152
TGCTACCA | 0.112

Block 5
Target: Interferon regulatory factor 3, full length, phosphomimetic (IRF3, Homo sapiens, UniProt Q14653, residues 1-427, S386D/S396D/S398D/S402D/T404D/S405D)
Sequence of UniProt Q14653 (whole entry, unmodified, looked up): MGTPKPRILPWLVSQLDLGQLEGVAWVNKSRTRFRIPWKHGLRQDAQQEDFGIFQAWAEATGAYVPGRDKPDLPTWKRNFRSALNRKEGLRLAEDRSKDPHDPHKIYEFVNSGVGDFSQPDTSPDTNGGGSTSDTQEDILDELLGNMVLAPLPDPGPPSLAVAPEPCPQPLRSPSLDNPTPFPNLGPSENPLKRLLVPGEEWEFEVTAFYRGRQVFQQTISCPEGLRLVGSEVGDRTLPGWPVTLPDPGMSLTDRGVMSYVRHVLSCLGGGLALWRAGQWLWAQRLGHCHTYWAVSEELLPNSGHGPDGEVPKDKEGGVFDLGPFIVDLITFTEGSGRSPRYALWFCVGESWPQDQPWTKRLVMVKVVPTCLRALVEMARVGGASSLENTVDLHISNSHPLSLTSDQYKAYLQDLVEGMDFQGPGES
Technique: protein-binding microarray
Molecule type: double-stranded DNA, one strand shown
Matrix: in vitro
Tested at: 2540 nM top
Setting: 60-bp whole probe
Together with: salmon DNA 0.4 mg/ml
Reference: random background probes
Direction: higher = stronger binding
Constant ends, left off below: GCCTAGCAC … GTCTTGATTCGCTTGACGCTGCTG
Oligonucleotide | fitted relative affinity
TCAGAGTTCTGTTGCAAACTGTGCTAG | -0.141 z-score
TTAGGTCGCGGTCTCGGTTAGTGCTAG | 0.294 z-score
GACGGATTGGGTATCGGGACGTGCTAG | 0.151 z-score
TTAGATTTAAGACTGGATTAGTGCTAG | -0.331 z-score
TTAGATTTCAGTCTCGAGTAGTGCTAG | 2.14 z-score
GACGAACTGGGCTTTCGAGACGTGCTA | -0.608 z-score
GACGGACTCGGGTATCGGGACGTGCTA | -0.151 z-score
GACGGTATCGGTCTAGGGACGTGCTAG | 3.27 z-score

Excerpt of the above (block 1):
Structure (SMILES) | inhibition [%]
CC(N)CCCC(C)(C)O (stereo not shown) | -1.79
Nc1ncnc2nc(-c3ccc(N4CCOCC4)nc3)cc(-c3cccc(Br)c3)c12 | 7.49
CCN(CC)C(=O)c1ccc(C2=CC3(CCNCC3)Oc3cccc(O)c32)cc1 | -4.64
Nc1cccc2c1C(=O)N(C1CCC(=O)NC1=O)C2=O (stereo not shown) | 4.07
Nc1nc2c(cnn2CCc2ccccc2)c2nc(-c3ccco3)nn12 | 2.43
C[C@]12CCC(=O)C=C1C=C[C@@H]1[C@@H]2CC[C@@]2(C)[C@H]1CC[C@@]2(O)CCC(=O)O | -2.31
CCC1(c2ccc(N)cc2)CCC(=O)NC1=O (stereo not shown) | 3.48
